Experimental data gathered from unrelated publications.
Parts stem from different laboratories: compare values within a part only.

Sample 1
Target: Ras GTPase-activating protein-binding protein 1, full length (G3BP1, Homo sapiens, UniProt Q13283)
Sequence of UniProt Q13283 (whole entry, looked up): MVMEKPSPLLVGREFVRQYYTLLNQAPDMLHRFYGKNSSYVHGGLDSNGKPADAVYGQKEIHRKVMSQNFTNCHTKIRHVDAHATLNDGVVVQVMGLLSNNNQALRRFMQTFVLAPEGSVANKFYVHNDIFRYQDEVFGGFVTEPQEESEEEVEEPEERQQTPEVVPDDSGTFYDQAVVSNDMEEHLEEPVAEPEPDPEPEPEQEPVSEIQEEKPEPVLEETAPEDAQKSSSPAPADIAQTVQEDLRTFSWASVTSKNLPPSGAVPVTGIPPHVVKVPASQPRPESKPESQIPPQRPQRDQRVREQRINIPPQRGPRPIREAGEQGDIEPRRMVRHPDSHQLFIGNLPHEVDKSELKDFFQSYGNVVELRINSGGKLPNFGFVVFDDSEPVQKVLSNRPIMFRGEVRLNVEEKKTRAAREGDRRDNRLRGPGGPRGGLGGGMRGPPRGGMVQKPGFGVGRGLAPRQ
Technique: RNA Bind-n-Seq
Molecule type: RNA
Sample: in vitro
Tested at: 200 nM
Notes: whole 134-nt RNA, ends assumed
Together with: 150 mM LiCl
Baseline: input library
Reading: higher = stronger binding
Measurement: log2 enrichment
Library: 7-deaza-guanosine replaces G
Constant ends, left off below: GGGAGUUCUACAGUCCGACGAUC … UGGAAUUCUCGGGUGUCAAGG
CCUCAAGUCCUGUGCUACACAUCGUAUGUACCGAAUCGGGAGGGGAGGAGGGGAAAGUAUUAUGUUACGCCGUUCGGAUCUGCACUUCCA: 0.396
UCAAGUCCUGUGCUACACAUCGUAUGUACCGAAUCGGGAAAGGAAAGGAAAGGGAAAGUAUUAUGUUACGCCGUUCGGAUCUGCACUUCC: -0.281
CCUCAAGUCCUGUGCUACACAUCGUAUGUACCGAAUCGGGGCGGCGGGCGGGAAAGUAUUAUGUUACGCCGUUCGGAUCUGCACUUCCAG: -0.526
GGUAAACGCCCUGCAGAAGAUAUGGAAGAGGAACAAGCAUUUAAAAGAUCUAGAAACACUGAUGAGAUGGUUGAAUUACGCAUUCUGCUU: -0.682
CCUGUGCUACACAUCGUAUGUACCGAAUCGGCCCCCCCGGCCCCCCCGGGCCCCCCCGGGGAAAGUAUUAUGUUACGCCGUUCGGAUCUG: 0.252
CAACUUUAGAGGAGGAUCUGAUGGAUAUGGCAGUGGACGUGGAUUUGGGGAUGGCUAUAAUGGGUAUGGAGGAGGACCUGGAGGUGGCAA: 0.282
UCCUGUGCUACACAUCGUAUGUACCGAAUCGGCCCCCCGGGCCCCCCGGGGCCCCCCGGAAAGUAUUAUGUUACGCCGUUCGGAUCUGCA: -0.587
UCAAGUCCUGUGCUACACAUCGUAUGUACCGAAUCGGCCCGGGCCCGGCCCGGGGAAAGUAUUAUGUUACGCCGUUCGGAUCUGCACUUC: -0.213
GCAGGAAGUAAAAACAAAUGGAAAUGCUUCGGAUAGUGGCAGGGGUGGGGGUUGCUAAGGAAAGGGUGAGAUGGGAGUGGGUAAAGAGUU: 0.0181
UAACUUUAGAGGAGGAUCUGAUGGAUAUGGCAGUGGACGUGGAUUUGGGGAUGGUUAUAAUGGGUAUGGAGGAGGACCUGGAGGUGGCAA: 0.598
UGCUUGUUCUGGAGUGAUCUUCUGACUGGAAAAGAACUAUGUCAUGGAUCAAGGAAGGAGAGCUGUCACUUUGGGAGCGGUUCUGUGCCA: 1.1

Sample 2
Target: Sal-like protein 4, full length isoform A (SALL4, Homo sapiens, UniProt Q9UJQ4, residues 1-1053)
Sequence of UniProt Q9UJQ4 (whole entry, looked up): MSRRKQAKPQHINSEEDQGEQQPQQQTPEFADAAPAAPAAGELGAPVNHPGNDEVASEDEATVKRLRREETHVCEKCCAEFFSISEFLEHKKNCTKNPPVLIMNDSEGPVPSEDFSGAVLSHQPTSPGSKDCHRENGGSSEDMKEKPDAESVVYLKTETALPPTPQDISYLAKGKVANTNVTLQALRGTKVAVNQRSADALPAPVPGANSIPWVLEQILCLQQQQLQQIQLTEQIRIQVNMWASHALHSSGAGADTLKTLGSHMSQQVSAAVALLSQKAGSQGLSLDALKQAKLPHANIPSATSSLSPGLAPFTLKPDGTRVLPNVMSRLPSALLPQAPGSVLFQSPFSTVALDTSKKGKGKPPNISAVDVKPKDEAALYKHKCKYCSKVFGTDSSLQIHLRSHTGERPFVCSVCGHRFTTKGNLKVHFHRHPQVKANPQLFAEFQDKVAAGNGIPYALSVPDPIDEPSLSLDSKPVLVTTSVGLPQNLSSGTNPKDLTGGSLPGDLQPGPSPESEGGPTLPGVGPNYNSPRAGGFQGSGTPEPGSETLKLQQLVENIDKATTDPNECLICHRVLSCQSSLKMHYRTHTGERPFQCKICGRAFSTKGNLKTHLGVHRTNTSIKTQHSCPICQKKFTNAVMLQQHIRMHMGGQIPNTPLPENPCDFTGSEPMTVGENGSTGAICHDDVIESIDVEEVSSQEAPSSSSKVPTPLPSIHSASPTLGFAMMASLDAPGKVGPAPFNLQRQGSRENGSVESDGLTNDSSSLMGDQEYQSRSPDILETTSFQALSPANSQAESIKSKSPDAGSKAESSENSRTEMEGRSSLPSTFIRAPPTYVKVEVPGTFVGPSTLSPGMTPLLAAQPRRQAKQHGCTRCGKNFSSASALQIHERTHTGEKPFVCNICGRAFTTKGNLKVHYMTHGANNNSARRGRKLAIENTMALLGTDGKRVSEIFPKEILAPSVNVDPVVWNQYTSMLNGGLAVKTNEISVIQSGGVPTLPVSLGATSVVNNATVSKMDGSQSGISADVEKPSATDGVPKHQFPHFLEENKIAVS
Technique: universal PBM
Molecule type: double-stranded DNA, one strand shown
Sample: in vitro
Tested at: 600 nM
Notes: 8-mer, flanks averaged, mean of replicates
Reading: higher = stronger binding
Measurement: E-score
CCGATGTC: -0.173
ACTATGTC: 0.109
CTAGAGCC: -0.11
CGAGCCTC: -0.172
AAAAGGCC: -0.122
AGCCTCAA: -0.199
AGACGCCT: -0.267
CTAGGAAC: -0.0576
CCTAGGCG: -0.28
ATTGGAGG: -0.111
CCACAGCG: -0.212
CTGCGCCA: -0.199
CACATTAG: 0.0796
AAGCGCTG: -0.12
ATCCTCTG: -0.0368
AGTCCTCG: -0.231

Sample 3
Target: RNA binding protein fox-1 homolog 2, RRM domain, GST-SBP tag (RBFOX2, Homo sapiens, UniProt O43251-10, residues 100-194)
Technique: RNA Bind-n-Seq
Molecule type: RNA
Sample: in vitro
Tested at: 365 nM
Notes: natural RNA segment, single round, ends assumed
Baseline: no-protein control
Reading: higher = stronger binding
Measurement: RBNS enrichment (R)
Constant ends, left off below: GGGAGUUCUACAGUCCGACGAUC … UGGAAUUCUCGGGUGCCAA
Target sequence (chain): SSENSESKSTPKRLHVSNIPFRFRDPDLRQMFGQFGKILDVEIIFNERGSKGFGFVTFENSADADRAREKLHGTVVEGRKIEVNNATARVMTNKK
UUUCUUUUGACAUUGCAACCGAAGGUCAUAAGGCCGCUAGCUCCGCUGGGACAGAGGCUUGAGAGAACUAACGGCUCGGUGCCUUCUCCCUGGUCUCAGACCAUCGUCUC: 0.511
UGCUUCACUCCUGGCUCUGUUCAGGGAGGCUGCCCAGGAGGAAGACUGGCCAUUAUGCAUCCCCUUUUCUUUCCAGUGCCCAGUAUGCUGUUUUGAGGUGUCAAAUACAA: 2.4
UCUUUAAUCUCUUGUUAAAUUACCCCUUUGAUAUUGGUGUCUGUCAGCGUUGGGGCUUCUUAGUAUCAGGACCUCUCUGAGGUAAGGACUUUCCUGUGUGGCCACAGAAA: 0.455
AGGAAGCAUUUGUACAGUGGCUAAUUUAAGGGGAGUGGGAGACCCUGUCACCCUGAGCACUCUGCGCUGGGGAGGGGUUUAAAUUAUUGACCUUGUACAGUCUGCUUGCU: 0.888
AUCCUUCCUGCUUAAGGACUCAGAAACAAGUCAGCGUCUGGCCAACCUCAGGCAACGGGUGGAGCAGUUUGCCAGGGCCUUCCCCAUGCCUGGUUUUGAUGAGCAUUGAA: 1.29
UCUCCUGACACCUCUUGUGGGGUGCAUGUUCCUGCUCCAGGUAUGCUGUUCAUGUGGAUUCAUUCCAUUCAGUGGCCCCUUGGGGUUUGCAUGCCAGUGAAGCGUUACCA: 2.96
GGGUAUUUCUUCUACCCUAUCUUCUUUCAUUGUCAUUCCAAGGGCAGUAGGCCAAGAAAUUAUCUUUCUGGUUUUUUUCCUCUAAACUCCAUUUGGUUAGCAGACAGUGA: 0.332
CCCUUGGUCUUCGCUCCAUCGCCUUGAAAGCUCUGAAGAGGCCCUGGGUUGCCGCGGCAGCAGUGGUCUGUUUGAUGCUGCCGUUUGCCGCUGCCGGCCCCUCCUCAGAC: 0.656
UAAAUAUGGAUAUACCAAGUAUUUAAUGACUAAUGCACAUAGAAAUUAAUAUUAAUACAGUGAUCUUUUGAAUGUUCCAGGUAUAGGCUUUUUAAAAAGUGUUAAGAGUG: 0.646
UGUGACGUCUCUUUGUUAACCUAAGUAUAUCUAUUUUCGGCAAUAAGGUAAGGACGGCCGUGUUUUGAGGGUCUUCCUUUCCUAUGAGUGCUUUUUCUUUUCUUCUGUUC: 0.601
UAGUUCUAGCCCUUCUGCCUGUGUAGACAGAAGCUAAACCACCAGUCUCUCUCGGAGGAAGCUGAGACAACAUACUCUGUCCAUACAUAAGCAGGCAGGGAGGGCCAUGC: 0.517
AGGAAAUGCAGUUUCAUGUAAUCCCUGUGAAGAGUGCCUAUGCCCACAGCCCAGUGGGUCCUUGUUCAGUUCUUGUCCAGGCCUUUGGGUGAGGGACACUGGUAGGGAUC: 0.192

Sample 4
Target: Histone acetyltransferase KAT6A, winged helix 2, GST fusion (KAT6A, Homo sapiens, UniProt Q92794, residues 85-181)
Technique: protein binding microarray
Molecule type: double-stranded DNA, one strand shown
Sample: in vitro
Tested at: not given
Notes: 8-mer, flanks averaged, mean of 2 arrays, mostly near background
Baseline: not given
Reading: higher = stronger binding
Measurement: E-score
Construct (chain): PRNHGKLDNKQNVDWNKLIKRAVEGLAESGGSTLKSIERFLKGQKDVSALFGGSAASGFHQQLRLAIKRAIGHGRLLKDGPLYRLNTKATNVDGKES
TCGGGACA: -0.0384
ATTGCCTG: 0.0714
CCTCCGTA: -0.145
AACAACCT: -0.165
CATCAGCG: -0.0787
ATGTAGCC: -0.185
TCTCGGCA: 0.0702
TAGTGCCA: 0.0784
CCGCAGCA: 0.165
ATGCTGTA: 0.0824
GCCGAAGC: 0.153
AACTCAGT: -0.11
GTGACACA: 0.0773
TATGTCGA: -0.0293
ATGCTTCA: 0.081
AGCTACAC: -0.128
AAAGCGTT: -0.103
TCGAGCAA: 0.235
CGTATCGA: -0.231
AGGAGACG: -0.223
ACTTTGCT: -0.0108
ACCAGCTA: -0.0147
CTGCAGAA: 0.0506
GAATAGCC: -0.071

Sample 5
Target: Interferon regulatory factor 5, full length, phosphomimetic (IRF5, Homo sapiens, UniProt Q13568-2, residues 1-514, K96S/S451D/S453D/S456D/S462D)
Technique: protein-binding microarray
Molecule type: double-stranded DNA, one strand shown
Sample: in vitro
Tested at: 250 nM
Notes: 60-bp whole probe
Together with: salmon DNA 0.4 mg/ml
Baseline: random background probes
Reading: higher = stronger binding
Measurement: log fluorescence
Constant ends, left off below: GCCTAGCAC … GTCTTGATTCGCTTGACGCTGCTG
TTACGTTTCGGTTTCGGTTAGTGCTAG: 12.1 z-score
GACGCACTGGGGTTTCGAGACGTGCTA: 0.79 z-score
GACGGTCTCGGTTTCGGCACGTGCTAG: 3.52 z-score
TTAGGTATCGACTTTCCGTTAGTGCTA: 4.16 z-score
GACCGTTTCCTTATCCTGACGTGCTAG: 0.753 z-score
TTAGGTTTCGTCACTGGGTTAGTGCTA: 3.86 z-score
GACGAACTGAGTATCGAGCCGTGCTAG: 0.965 z-score
TTAGGTTTCCTTTCCCTTTTGTGCTAG: 2.08 z-score
GACGGTAACGGACTGGGGACGTGCTAG: -0.289 z-score
TTAGATATCAGTCTCGAATAGTGCTAG: 1.52 z-score
TTAGGTTCCGGGTTTCGGTTAGTGCTA: 7.13 z-score
TTGGGTTTCCTTATCCTTTAGTGCTAG: 0.686 z-score
TCAATGTTCACTATTTAACTGTGCTAG: 0.718 z-score
GACGATCTCACTATCGAGACGTGCTAG: 2.53 z-score
TTAGGTTTCCTCCTGCTTTAGTGCTAG: 0.337 z-score
GACGAACTCGGGTTTCGAGACGTGCTA: 1.65 z-score
GACGGTTTCGGACTAGGGACGTGCTAG: 4.67 z-score
TCACATCTCTGCTCCTTACTGTGCTAG: 0.399 z-score
TTAGGTCTCGGTTTCGGTTAGTGCTAG: 8.67 z-score

For quick reference, copied from above (sample 2):
CTAGAGCC: -0.11
CGAGCCTC: -0.172
AAAAGGCC: -0.122
AGCCTCAA: -0.199
AGACGCCT: -0.267
CTAGGAAC: -0.0576
CCTAGGCG: -0.28
ATTGGAGG: -0.111
CCACAGCG: -0.212
CTGCGCCA: -0.199
CACATTAG: 0.0796
AAGCGCTG: -0.12
ATCCTCTG: -0.0368
